Measurements pooled from the literature.
Protocols differ between the studies behind these lines.
Organism: Human immunodeficiency virus 1

SMILES | read-out | technique | cells | strain | time | IC50 [µM]
O=C(Nc1ccccc1CO)c1ccccc1Sc1ccc([N+](=O)[O-])cc1 | viral replication | – | MT4 | – | 7 days | 93
Cn1cc(-c2ccc(F)cc2)c2ccc(Cl)nc21 | cell growth or viability | MTT | TZM-bl | – | 48 h | 5.53
COC(=O)c1ccc(Oc2ccccc2NC(=O)c2ccccc2OC)cc1 | viral replication | – | MT4 | – | 7 days | 40.6
CC(C)(N)C(NC(=O)c1ccc(-c2ccc3c(c2)OCO3)[nH]1)c1ncc(CO)s1 (stereo not shown) | viral replication | ELISA | MT2 | – | – | 4.3
CC1=C(c2nc(-c3ccc(C#N)cc3)cs2)C(c2cc3ccccc3n2C)NC(=O)N1 (stereo not shown) | viral replication | – | MAGI-CCR5 | NL43 | – | 0.52
Cn1cc(-c2ccc3c(c2)OCO3)c2ccc(Cl)nc21 | cell growth or viability | MTT | TZM-bl | – | 48 h | 44.9
O=C(O)c1cc(O)c(O)c(O)c1 | viral replication | – | TZM-bl | BAL | 48 h | 6.08
Cc1nc(C(NC(=O)c2ccc(-c3ccc4c(c3)OCO4)[nH]2)C(C)(C)N)sc1CO (stereo not shown) | viral replication | ELISA | MT2 | – | – | 2.3
COc1ccc(COc2ccccc2C(=O)Nc2ccccc2OC)cc1 | viral replication | – | MT4 | – | 7 days | > 100
CC1(C)Oc2ccc(-c3ccc(C(=O)NC(CN)c4ncc(CO)s4)[nH]3)cc2O1 (stereo not shown) | viral replication | ELISA | MT2 | – | – | 16.2
COc1ccc(Cn2cc(-c3ccsc3)c3ccc(-c4ccncc4)nc32)cc1 | cell growth or viability | MTT | TZM-bl | – | 48 h | 17.3
CN(C)CCCNc1cc2c(=O)n(CCCN(C)C)c(=O)c3c4[nH]c5ccccc5[nH]c4c4c(=O)n(CCCN(C)C)c(=O)c1c4c23 | viral replication | – | TZM-bl | NL43 | 48 h | 0.814
CC(C)(C)OC(=O)N1CCN(C(=O)c2ccccc2Sc2ccc([N+](=O)[O-])cc2)CC1 | viral replication | – | MT4 | – | 7 days | 3.7
Cc1nc(C(CN)NC(=O)C(=O)Nc2ccc3c(c2)OCO3)sc1CO (stereo not shown) | viral replication | ELISA | MT2 | – | – | > 79
Cc1ccc(-c2ccc3c(-c4ccccc4)cn(C)c3n2)cc1 | cell growth or viability | MTT | TZM-bl | – | 48 h | > 200
COc1ccccc1NC(=O)c1ccccc1OCc1cccc([N+](=O)[O-])c1 | viral replication | – | MT4 | – | 7 days | > 100
Cn1cc(-c2cc(C(F)(F)F)cc(C(F)(F)F)c2)c2ccc(Cl)nc21 | cell growth or viability | MTT | TZM-bl | – | 48 h | 88.5
CN(C)CCCn1c(=O)c2cc(Br)c3c(=O)n(CCCN(C)C)c(=O)c4c5[nH]c6ncccc6[nH]c5c(c1=O)c2c34 | viral replication | – | TZM-bl | NL43 | 48 h | 0.0635
O=C(Nc1ccccc1CO)c1ccccc1Oc1ccc([N+](=O)[O-])cc1 | viral replication | – | MT4 | – | 7 days | 15.6
Cn1cc(-c2ccc3c(c2)OCO3)c2ccc(-c3ccncc3)nc21 | cell growth or viability | MTT | TZM-bl | – | 48 h | > 200
COc1ccccc1S(=O)(=O)Nc1ccccc1Sc1ccc(N)cc1 | viral replication | – | MT4 | – | 7 days | 21
Cn1cc(-c2ccccc2)c2ccc(Cl)nc21 | cell growth or viability | MTT | TZM-bl | – | 48 h | 17.5

Repeated from above:
SMILES | read-out | technique | cells | strain | time | IC50 [µM]
O=C(Nc1ccccc1CO)c1ccccc1Oc1ccc([N+](=O)[O-])cc1 | viral replication | – | MT4 | – | 7 days | 15.6
